Assay results from different studies.
Parts stem from different laboratories: compare values within a part only.
Sequence of UniProt P29376 (whole entry, looked up): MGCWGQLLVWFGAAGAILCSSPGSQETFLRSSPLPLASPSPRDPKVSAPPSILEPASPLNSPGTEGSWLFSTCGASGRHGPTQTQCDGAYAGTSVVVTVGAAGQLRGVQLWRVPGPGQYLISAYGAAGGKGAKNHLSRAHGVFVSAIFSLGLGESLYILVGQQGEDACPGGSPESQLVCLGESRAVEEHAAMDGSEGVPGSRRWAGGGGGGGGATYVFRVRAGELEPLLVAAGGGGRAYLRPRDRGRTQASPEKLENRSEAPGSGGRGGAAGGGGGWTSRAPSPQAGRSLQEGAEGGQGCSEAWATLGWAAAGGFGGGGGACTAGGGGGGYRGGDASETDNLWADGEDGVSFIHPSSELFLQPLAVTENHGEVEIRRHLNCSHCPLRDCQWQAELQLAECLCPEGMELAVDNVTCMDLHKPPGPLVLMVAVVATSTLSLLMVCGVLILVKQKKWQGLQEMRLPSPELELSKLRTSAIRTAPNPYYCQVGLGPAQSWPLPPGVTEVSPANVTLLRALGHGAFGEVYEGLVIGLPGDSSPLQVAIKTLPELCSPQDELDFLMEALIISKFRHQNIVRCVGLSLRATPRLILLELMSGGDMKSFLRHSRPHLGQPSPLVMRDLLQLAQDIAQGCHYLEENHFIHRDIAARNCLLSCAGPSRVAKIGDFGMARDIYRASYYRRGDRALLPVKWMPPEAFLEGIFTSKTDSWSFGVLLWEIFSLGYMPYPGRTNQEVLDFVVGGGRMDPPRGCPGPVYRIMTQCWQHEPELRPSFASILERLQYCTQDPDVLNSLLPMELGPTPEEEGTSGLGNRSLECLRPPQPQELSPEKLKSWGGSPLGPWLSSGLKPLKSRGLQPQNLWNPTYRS
Sequence of UniProt Q59H18 (whole entry, looked up): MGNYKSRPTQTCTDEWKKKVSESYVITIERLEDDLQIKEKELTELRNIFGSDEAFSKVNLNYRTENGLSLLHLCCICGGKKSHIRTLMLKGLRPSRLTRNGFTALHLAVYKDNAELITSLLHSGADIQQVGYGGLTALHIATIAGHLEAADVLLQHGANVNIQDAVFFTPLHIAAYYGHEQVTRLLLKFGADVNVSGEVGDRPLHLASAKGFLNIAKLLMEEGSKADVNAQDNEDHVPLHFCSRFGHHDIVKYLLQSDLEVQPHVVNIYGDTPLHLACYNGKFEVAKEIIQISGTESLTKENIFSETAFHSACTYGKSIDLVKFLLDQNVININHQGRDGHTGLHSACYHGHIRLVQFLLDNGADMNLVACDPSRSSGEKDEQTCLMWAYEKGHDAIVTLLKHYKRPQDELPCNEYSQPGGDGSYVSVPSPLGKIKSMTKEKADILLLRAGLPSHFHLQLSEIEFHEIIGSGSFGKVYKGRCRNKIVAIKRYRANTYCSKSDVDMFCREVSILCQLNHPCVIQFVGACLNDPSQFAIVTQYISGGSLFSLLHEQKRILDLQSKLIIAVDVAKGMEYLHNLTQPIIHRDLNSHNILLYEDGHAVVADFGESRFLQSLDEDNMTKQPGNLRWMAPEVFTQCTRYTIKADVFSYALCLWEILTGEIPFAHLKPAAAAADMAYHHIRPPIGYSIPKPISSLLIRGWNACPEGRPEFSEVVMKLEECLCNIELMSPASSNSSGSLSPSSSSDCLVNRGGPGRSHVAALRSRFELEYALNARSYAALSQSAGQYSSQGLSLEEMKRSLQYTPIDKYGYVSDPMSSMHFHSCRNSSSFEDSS
Sequence of UniProt P57059 (whole entry, looked up): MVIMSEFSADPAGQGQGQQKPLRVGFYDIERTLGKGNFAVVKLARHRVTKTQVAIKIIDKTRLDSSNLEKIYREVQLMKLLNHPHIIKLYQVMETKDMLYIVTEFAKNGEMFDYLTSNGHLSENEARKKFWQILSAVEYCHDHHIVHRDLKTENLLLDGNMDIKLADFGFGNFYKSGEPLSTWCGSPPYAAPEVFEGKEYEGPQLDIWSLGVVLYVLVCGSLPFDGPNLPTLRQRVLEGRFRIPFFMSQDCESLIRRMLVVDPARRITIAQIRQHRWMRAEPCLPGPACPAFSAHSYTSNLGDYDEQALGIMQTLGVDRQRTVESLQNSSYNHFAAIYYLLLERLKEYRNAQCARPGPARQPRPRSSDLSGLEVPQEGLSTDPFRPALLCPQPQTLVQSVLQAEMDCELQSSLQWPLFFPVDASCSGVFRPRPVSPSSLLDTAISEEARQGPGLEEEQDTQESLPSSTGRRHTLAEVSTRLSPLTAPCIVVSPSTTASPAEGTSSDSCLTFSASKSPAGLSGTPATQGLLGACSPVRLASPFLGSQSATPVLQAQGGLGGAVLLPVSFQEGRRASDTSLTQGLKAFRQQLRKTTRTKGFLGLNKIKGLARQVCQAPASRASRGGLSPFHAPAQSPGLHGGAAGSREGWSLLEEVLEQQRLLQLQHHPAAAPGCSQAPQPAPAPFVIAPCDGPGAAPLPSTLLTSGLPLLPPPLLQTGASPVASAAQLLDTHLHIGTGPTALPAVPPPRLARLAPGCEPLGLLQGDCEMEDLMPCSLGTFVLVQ
Sequence of UniProt Q9H422 (whole entry, looked up): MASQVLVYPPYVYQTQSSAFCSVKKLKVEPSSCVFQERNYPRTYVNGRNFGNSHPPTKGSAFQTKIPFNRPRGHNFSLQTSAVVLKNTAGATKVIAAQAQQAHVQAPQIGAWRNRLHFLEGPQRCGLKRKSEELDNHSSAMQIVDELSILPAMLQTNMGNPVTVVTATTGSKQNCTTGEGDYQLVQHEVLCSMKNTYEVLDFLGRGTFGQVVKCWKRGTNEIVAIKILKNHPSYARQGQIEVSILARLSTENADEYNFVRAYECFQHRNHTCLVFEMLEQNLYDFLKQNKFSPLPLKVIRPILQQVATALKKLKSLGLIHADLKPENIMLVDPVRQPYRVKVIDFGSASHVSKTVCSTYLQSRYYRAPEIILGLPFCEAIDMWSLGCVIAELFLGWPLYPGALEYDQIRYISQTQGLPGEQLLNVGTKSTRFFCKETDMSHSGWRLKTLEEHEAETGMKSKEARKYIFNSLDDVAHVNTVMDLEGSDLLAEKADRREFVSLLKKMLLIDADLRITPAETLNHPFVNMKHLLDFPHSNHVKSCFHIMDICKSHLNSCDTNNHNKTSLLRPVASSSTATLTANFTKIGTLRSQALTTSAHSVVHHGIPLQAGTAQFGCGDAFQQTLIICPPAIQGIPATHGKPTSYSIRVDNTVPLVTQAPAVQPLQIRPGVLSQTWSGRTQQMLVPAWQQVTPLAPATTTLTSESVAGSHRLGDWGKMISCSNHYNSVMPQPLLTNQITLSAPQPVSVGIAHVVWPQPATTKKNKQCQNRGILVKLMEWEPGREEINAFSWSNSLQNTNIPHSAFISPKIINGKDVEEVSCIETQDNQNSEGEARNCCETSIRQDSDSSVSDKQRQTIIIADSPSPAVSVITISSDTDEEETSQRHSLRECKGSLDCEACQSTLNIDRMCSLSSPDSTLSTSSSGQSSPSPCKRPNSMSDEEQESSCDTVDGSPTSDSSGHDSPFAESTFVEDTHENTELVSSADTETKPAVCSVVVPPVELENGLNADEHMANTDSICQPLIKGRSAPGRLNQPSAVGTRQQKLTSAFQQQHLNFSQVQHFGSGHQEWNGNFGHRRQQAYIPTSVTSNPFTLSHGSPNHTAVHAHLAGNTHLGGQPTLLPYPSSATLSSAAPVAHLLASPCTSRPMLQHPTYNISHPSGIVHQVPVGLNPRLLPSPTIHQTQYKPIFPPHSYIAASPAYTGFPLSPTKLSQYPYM
Sequence of UniProt P49760 (whole entry, looked up): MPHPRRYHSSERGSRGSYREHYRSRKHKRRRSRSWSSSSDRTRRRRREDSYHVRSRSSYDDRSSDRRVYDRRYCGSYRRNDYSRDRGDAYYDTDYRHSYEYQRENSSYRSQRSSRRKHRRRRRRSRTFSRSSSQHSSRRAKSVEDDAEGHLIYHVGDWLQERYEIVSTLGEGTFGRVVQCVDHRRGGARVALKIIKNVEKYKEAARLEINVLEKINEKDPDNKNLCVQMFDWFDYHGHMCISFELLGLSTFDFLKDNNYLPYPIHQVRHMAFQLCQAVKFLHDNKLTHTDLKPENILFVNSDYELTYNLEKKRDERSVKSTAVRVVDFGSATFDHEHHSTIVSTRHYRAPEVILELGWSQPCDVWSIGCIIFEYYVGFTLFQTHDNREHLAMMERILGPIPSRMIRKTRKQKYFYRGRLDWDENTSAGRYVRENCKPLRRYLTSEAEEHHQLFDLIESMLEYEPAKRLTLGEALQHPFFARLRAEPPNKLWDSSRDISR

Study 1 — target: His6 tag; method: AlphaScreen counter screen; tested at: concentration not given
`Nc1nc(Nc2ccc(S(N)(=O)=O)cc2)nn1C(=O)c1c(F)cccc1F` gave an inhibition of 5.15%.
`Cc1cncc2cccc(S(=O)(=O)N3CCCNC[C@@H]3C)c12` has an inhibition of 3.5%.
With `COc1ccc(-c2nnc3ccc(SCC(=O)Nc4ccccc4F)nn23)cc1OC` the inhibition was -4.9%.
`CCOc1c(Br)ccc2c1sc1nc[nH]c(=O)c12` gave an inhibition of 6.45%.
`O=C(CSc1ccc2nnc(-c3cccc(F)c3)n2n1)Nc1cccc(Cl)c1` gave an inhibition of 4.25%.
With `Cc1cc(C(=O)NOCCO)c(Nc2ccc(I)cc2F)n(C)c1=O` the inhibition was 6.5%.
The inhibition of `Cc1c(-c2ccccc2)sc2nc[nH]c(=O)c12` is reported as 6.25%.
`COc1cc2ncn(-c3cc(OCc4ccccc4C(F)(F)F)c(C(N)=O)s3)c2cc1OC` has an inhibition of -4.65%.
For `O=C(CSc1ccc2nnc(-c3ccc(Cl)cc3)n2n1)N1CCOCC1`, the inhibition was -10.8%.
With `COc1cccc(Nc2ncc3c(n2)CCNC3)c1` the inhibition was 13%.

Study 2 — read-out: enzyme activity; mode: inhibitor; tested at: 0.5 µM; relative to: control
Target: Serine/threonine-protein kinase D2 (PRKD2, Homo sapiens, UniProt Q9BZL6)
Sequence of UniProt Q9BZL6 (whole entry, looked up): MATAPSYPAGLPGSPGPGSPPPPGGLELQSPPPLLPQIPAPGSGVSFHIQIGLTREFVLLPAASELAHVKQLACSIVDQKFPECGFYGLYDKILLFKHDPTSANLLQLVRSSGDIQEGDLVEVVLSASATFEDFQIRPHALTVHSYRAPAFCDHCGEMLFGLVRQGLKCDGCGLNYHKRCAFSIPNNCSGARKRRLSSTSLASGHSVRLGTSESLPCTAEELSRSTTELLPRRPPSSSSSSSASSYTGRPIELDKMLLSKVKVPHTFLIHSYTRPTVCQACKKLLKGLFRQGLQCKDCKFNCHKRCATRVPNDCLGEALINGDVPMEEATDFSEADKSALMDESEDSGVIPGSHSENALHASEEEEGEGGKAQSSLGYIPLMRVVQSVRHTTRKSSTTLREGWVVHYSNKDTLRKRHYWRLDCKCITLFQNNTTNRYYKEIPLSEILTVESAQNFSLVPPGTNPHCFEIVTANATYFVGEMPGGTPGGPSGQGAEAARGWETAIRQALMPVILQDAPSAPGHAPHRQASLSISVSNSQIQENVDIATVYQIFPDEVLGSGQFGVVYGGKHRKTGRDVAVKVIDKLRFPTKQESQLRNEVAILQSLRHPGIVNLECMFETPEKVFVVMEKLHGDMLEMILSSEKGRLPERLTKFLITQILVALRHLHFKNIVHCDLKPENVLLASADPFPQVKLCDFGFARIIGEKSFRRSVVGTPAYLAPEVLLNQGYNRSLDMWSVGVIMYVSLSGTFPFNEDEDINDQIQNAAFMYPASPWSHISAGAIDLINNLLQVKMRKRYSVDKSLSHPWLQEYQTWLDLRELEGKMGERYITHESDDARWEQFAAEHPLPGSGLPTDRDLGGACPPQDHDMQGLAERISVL
`Cc1cc2ncc(-c3ccccc3)nc2cc1C` gave a remaining activity of 96.5%.
The remaining activity of `Cc1nc2cc3nc(-c4cccs4)cnc3cc2n1C` is reported as 106%.
`CCOc1nc(NC(=O)Cc2cc(OC)ccc2OC)cc(N)c1C#N` gave a remaining activity of 91.4%.
With `N#C/C(=C\c1ccc(O)c(O)c1)C(=O)NCc1ccccc1` the remaining activity was 101%.
With `CCN(CC)CCNC(=O)c1c(C)[nH]c(/C=C2\C(=O)Nc3ccc(Cl)cc32)c1C` the remaining activity was 11.9%.
`O=C1C(Cl)=C(N2C(=O)CCC2=O)C(=O)c2ccccc21` has a remaining activity of 95.7%.
With `CCN(CC)C(=O)c1ccc(Nc2nc(OCC3CCCCC3)c3[nH]cnc3n2)cc1` the remaining activity was 67%.
With `Cn1nc2c3c(cccc31)C(=O)c1ccccc1-2` the remaining activity was 77%.
With `O=C(Nc1cccc(Nc2nccc(Nc3cccc(C(F)(F)F)c3)n2)c1)C1CC1` the remaining activity was 101%.
The remaining activity of `O=C1c2ccccc2-c2n[nH]c3cccc1c23` is reported as 33.6%.
The remaining activity of `O=C(NC(NC(=S)Nc1ccc(F)c([N+](=O)[O-])c1)C(Cl)(Cl)Cl)C(c1ccccc1)c1ccccc1` (stereo not drawn) is reported as 107%.
`Cc1cn(-c2cc(NC(=O)c3ccc(C)c(Nc4nccc(-c5cccnc5)n4)c3)cc(C(F)(F)F)c2)cn1` gave a remaining activity of 88.7%.
`CN(C)C[C@H]1CCn2c(c(C3=C(c4cn(C)c5ccccc45)C(=O)NC3=O)c3ccccc32)C1` gave a remaining activity of 97.6%.
`CCN(CC)CCNC(=O)c1c(C)[nH]c(/C=C2\C(=O)Nc3ccc(F)cc32)c1C` has a remaining activity of 21.1%.
For `COc1cc2c(cc1OC)-c1[nH]nc(Nc3cccc(F)c3)c1C2`, the remaining activity was 96.3%.
The remaining activity of `Ic1cccc(CSc2nnc(-c3ccncc3)o2)c1` is reported as 97.1%.
The remaining activity of `COc1cc2ncnc(Nc3ccc(O)c(Br)c3)c2cc1OC` is reported as 69.7%.
`N#Cc1c(NC(=O)c2cccc3ccccc23)sc2c1CCCC2` has a remaining activity of 126%.
For `CN([C@@H](Cc1ccc(OS(=O)(=O)c2cccc3cnccc23)cc1)C(=O)N1CCN(c2ccccc2)CC1)S(=O)(=O)c1cccc2cnccc12`, the remaining activity was 100%.
`c1ccc(-c2cnc(Nc3ccc(OCCN4CCCC4)cc3)s2)cc1` has a remaining activity of 82.2%.
`Nc1cccc(-c2cc3c(Oc4cccc(O)c4)ncnc3[nH]2)c1` gave a remaining activity of 81.7%.
For `c1ccc(-c2[nH]ncc2-c2ccnc3ccccc23)nc1`, the remaining activity was 66.9%.
`O=c1cc(-c2cccc3c2Sc2ccccc2S3)oc(N2CCOCC2)c1` has a remaining activity of 105%.
`COc1cc2ncnc(Nc3cccc(Cl)c3)c2cc1OC` gave a remaining activity of 92.3%.

Study 3 — tested at: 1 µM
Structure (SMILES): CC1=C(C#N)[C@@H](c2ccc3[nH]nc(C)c3c2)C(C#N)=C(c2ccc(Cl)cc2)N1
IRAK3 (Homo sapiens, UniProt Q9Y616); cell-free assay, competition with immobilised ligand — remaining binding: 96.4%.
The remaining binding was 100% (FLT3 (Homo sapiens, UniProt P36888, ITD); cell-free assay, competition with immobilised ligand).
For Myosin-IIIb (MYO3B, Homo sapiens, UniProt Q8WXR4); binding, competition with immobilised ligand: remaining binding read 78%.
The remaining binding was 100% (CAMK1 (Homo sapiens, UniProt Q14012); cell-free assay, competition with immobilised ligand).
For TNNI3K (Homo sapiens, UniProt Q59H18); cell-free assay, competition with immobilised ligand: remaining binding read 94.3%.
It gave 87.4% for remaining binding (NEK7 (Homo sapiens, UniProt Q8TDX7); cell-free assay, competition with immobilised ligand).
The remaining binding was 100% (RIOK3 (Homo sapiens, UniProt O14730); cell-free assay, competition with immobilised ligand).
It gave 100% for remaining binding (FLT3 (Homo sapiens, UniProt P36888, K663Q); cell-free assay, competition with immobilised ligand).
For HIPK3 (Homo sapiens, UniProt Q9H422); cell-free assay, competition with immobilised ligand: remaining binding read 89.5%.
It gave 100% for remaining binding (SIK1 (Homo sapiens, UniProt P57059); competition binding).
For CAMKK2 (Homo sapiens, UniProt Q96RR4); cell-free assay, competition with immobilised ligand: remaining binding read 86.5%.
The remaining binding was 69.3% (PIP4K2B (Homo sapiens, UniProt P78356); cell-free assay, competition with immobilised ligand).
EIF2AK2 (Homo sapiens, UniProt P19525); cell-free assay, competition with immobilised ligand — remaining binding: 74.1%.
The remaining binding was 100% (CLK2 (Homo sapiens, UniProt P49760); cell-free assay, competition with immobilised ligand).
It gave 100% for remaining binding (FLT3 (Homo sapiens, UniProt P36888); cell-free assay, competition with immobilised ligand).
The remaining binding was 100% (LTK (Homo sapiens, UniProt P29376); cell-free assay, competition with immobilised ligand).
For ROCK2 (Homo sapiens, UniProt O75116); cell-free assay, competition with immobilised ligand: remaining binding read 91.9%.

Study 4 — cell line: Huh-7; tested at: 10 µM; time: 24 h
`Nc1ccc(S(=O)(=O)Nc2ncccn2)cc1` has a viability of 104%.
With `O=C(O)Cc1ccccc1Nc1c(Cl)cccc1Cl` the viability was 99.9%.
`Nc1nc2c(c(=O)[nH]1)N(C=O)C(CNc1ccc(C(=O)N[C@@H](CCC(=O)O)C(=O)O)cc1)CN2` (stereo partly drawn) has a viability of 96.8%.
With `Oc1c(Cl)cc(Cl)c(Cl)c1Cc1c(O)c(Cl)cc(Cl)c1Cl` the viability was 57.7%.
`C[N+](C)(C)C[C@H](O)CC(=O)[O-]` gave a viability of 100%.
For `Nc1nc(F)nc2c1ncn2[C@@H]1O[C@H](COP(=O)(O)O)[C@@H](O)[C@@H]1O`, the viability was 79.1%.
`CCCCN1CCCCC1C(=O)Nc1c(C)cccc1C` (stereo not drawn) has a viability of 99.6%.
For `NCCS`, the viability was 99.7%.
`CO/N=C1\CN(c2nc3c(cc2F)c(=O)c(C(=O)O)cn3C2CC2)CC1CN` (stereo not drawn) has a viability of 92%.
